Measured values pooled from the literature.
Every numbered part comes from another study and shows a few of its results, in no order.

Sample 1
Target: Prothrombin, mature alpha-thrombin (F2, Homo sapiens, UniProt P00734)
Method: aptamer microarray, sandwich
Form: DNA with 2'F-ANA
Matrix: in vitro
Concentration: 200 nM
Notes: whole 15-mer aptamer, many near background
Together with: Cy3 exosite-II aptamer, 400 nM
Reading: higher = stronger binding
`GGTTGGTGTGGTTGG (2'F-ANA at 1 4 5 6 13 14)` — result for “mean fluorescence intensity”: 46.7 a.u.
For `GGTTGGTGTGGTTGG (2'F-ANA at 2 5 7 8 10 11 13 14)`, “mean fluorescence intensity” read 104 a.u.
For `GGTTGGTGTGGTTGG (2'F-ANA at 2 3 4 5 8 10 11 12 14 15)`, “mean fluorescence intensity” read 51.9 a.u.

Sample 2
Target: Sal-like protein 4, full length isoform B (SALL4, Homo sapiens, UniProt Q9UJQ4-2, residues 1-616)
Method: universal PBM
Form: double-stranded DNA, one strand shown
Matrix: in vitro
Concentration: not given
Notes: 8-mer, flanks averaged, mean of replicates
Reading: higher = stronger binding
With `ACCTAGGG` the E-score was -0.161.
`AAGGCTCA` gave an E-score of -0.0972.
The E-score of `ATACGCGC` is reported as -0.0673.

Further values, each from its own experiment
KAT6A both winged helices, GST fusion: Histone acetyltransferase KAT6A, both winged helices, GST fusion (KAT6A, Homo sapiens, UniProt Q92794, residues 1-181)
`CAGTTGAC` gave an E-score of -0.0284 (KAT6A both winged helices, GST fusion; protein binding microarray; double-stranded DNA, one strand shown, in vitro; not given, 8-mer, flanks averaged, mean of 2 arrays, mostly near background; relative to: not given, higher = stronger binding).
`PhoQ, residues 284 288 289 292 302 303 MLMVEA` gave a fold induction of 12.8 (PhoP, residues 12 14 15 18 19 NNFVT (Escherichia coli, UniProt P23836); Sort-seq, measured: YFP reporter; E. coli; PhoQ-PhoP variant library, together with: 10 µM Mg2+; relative to: high Mg2+ state, higher = stronger signaling).
`AGCAAGAC` has an E-score of 0.0118 (KAT6A both winged helices, GST fusion; protein binding microarray; double-stranded DNA, one strand shown, in vitro; not given, 8-mer, flanks averaged, mean of 2 arrays, mostly near background; relative to: not given, higher = stronger binding).

For quick reference, copied from above (sample 2):
`AAGGCTCA` gave an E-score of -0.0972.
